Results from different studies.
Parts stem from different laboratories: compare values within a part only. Substitutions count along the parent as printed.

Series 1
Target: CCNE1, cyclin fold, Cln2 fusion (human)
Technique: yeast growth competition, sequencing
Medium: yeast
Notes: weak parent motif
Baseline: not given
Reading: higher = stronger binding
Parent: ORC1 docking peptide (human); PRARKRLELGNLG
| Change | normalised enrichment score |
| --- | --- |
| PRARKRLELGNAG [L12A] | 0.412 |
| PRARKRLELYNLG [G10Y] | 2.62 |
| PRARKVLELGNLG [R6V] | 0.0758 |
| PRARKRVELGNLG [L7V] | -0.677 |
| PRSRKRLELGNLG [A3S] | 0.79 |
| PRARKRAELGNLG [L7A] | 0.537 |

Series 2
Target: Sal-like protein 4, full length isoform A (SALL4, Homo sapiens, UniProt Q9UJQ4, residues 1-1053)
UniProt Q9UJQ4, sequence (whole entry, looked up): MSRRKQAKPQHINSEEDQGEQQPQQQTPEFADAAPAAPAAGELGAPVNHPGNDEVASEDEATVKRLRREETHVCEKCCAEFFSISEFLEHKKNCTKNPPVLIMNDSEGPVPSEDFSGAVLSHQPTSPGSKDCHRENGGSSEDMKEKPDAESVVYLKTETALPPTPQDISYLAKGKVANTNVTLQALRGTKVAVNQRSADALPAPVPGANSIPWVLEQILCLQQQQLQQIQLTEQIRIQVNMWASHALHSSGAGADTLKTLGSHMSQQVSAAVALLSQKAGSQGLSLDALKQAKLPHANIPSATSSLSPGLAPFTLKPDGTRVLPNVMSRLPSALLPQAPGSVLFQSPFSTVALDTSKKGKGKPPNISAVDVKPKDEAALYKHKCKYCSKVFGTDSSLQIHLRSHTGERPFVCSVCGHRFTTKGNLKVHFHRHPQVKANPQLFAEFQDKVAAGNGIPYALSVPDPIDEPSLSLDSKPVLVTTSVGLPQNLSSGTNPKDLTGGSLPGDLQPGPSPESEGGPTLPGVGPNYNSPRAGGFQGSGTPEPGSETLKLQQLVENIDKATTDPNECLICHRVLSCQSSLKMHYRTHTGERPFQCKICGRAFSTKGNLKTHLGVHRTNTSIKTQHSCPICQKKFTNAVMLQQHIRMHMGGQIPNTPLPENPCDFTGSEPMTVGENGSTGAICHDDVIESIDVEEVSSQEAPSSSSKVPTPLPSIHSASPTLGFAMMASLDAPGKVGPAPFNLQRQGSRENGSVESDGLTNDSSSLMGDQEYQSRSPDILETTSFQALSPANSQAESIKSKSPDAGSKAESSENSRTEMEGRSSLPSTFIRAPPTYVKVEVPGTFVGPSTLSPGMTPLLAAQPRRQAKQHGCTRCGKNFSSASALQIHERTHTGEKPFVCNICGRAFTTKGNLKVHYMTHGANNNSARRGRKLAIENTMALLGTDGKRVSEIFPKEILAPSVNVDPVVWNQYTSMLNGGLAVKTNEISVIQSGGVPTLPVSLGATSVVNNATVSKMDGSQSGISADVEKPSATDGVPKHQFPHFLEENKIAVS
Technique: universal PBM
Form: double-stranded DNA, one strand shown
Medium: in vitro
Tested at: 600 nM
Notes: 8-mer, flanks averaged, mean of replicates
Reading: higher = stronger binding
| Sequence | E-score |
| --- | --- |
| CGACTACA | 0.0729 |
| CATGGATC | -0.0306 |
| GGAGTCGA | -0.22 |
| AAACTTAA | 0.276 |
| TGGTTTAA | 0.198 |
| AGGGGTTA | -0.187 |
| CGAACTAC | -0.0771 |
| CTTCCGAC | -0.0973 |
| CGGGATTC | -0.205 |
| GTACTGAC | -0.0709 |
| AAGTCTGA | -0.00451 |
| CGCGTCAA | -0.15 |

Series 3
Target: RNA binding protein fox-1 homolog 2, RRM domain, GST-SBP tag (RBFOX2, Homo sapiens, UniProt O43251-10, residues 100-194)
Technique: RNA Bind-n-Seq
Form: RNA
Medium: in vitro
Tested at: 365 nM
Notes: natural RNA segment, single round, ends assumed
Baseline: no-protein control
Reading: higher = stronger binding
All sequences stand within: GGGAGUUCUACAGUCCGACGAUC … UGGAAUUCUCGGGUGCCAA
Construct (chain): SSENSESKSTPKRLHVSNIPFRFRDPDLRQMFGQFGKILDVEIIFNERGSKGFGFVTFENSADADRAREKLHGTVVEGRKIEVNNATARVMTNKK
| Sequence | RBNS enrichment (R) |
| --- | --- |
| AUAUAAAGCAUACUUUCGAAAUACAAAGGACACUCAUUACAACCCCCAAACUCAGAUCCAGGUAUGAUAGUUUAUGCCUAUAAUCCCAGCACCAGGGAAGCUAAGGUGGA | 0.869 |
| AAGAGUGGAAUAGCUGUUUUAUUCUUAGGUUGUAGAAUGCCUUGUAGUGCUUCAUAUACUUUGGGGACGUAAUAUAGGAGAUAGUCUUACAUAAGUAAUAUAGAAACAGC | 1.03 |
| GGGUUCCCCAGAGUCUUCCUAGGUAUCUCUGGGAACCAGCAGAAGGAAUUUUCACCUAAGAGGGAUAACUUGUUGCUUCCAAUGAAUGGCUCCCACUCUCGUGGGUGCAA | 0.368 |
| GCGAUCAAUUCUGCAUGGUCACAGUAGAGAUCCCCGCAACUCGCUUGUCCUUGGGUCACCCUGCAUUCCAUAGCCAUGUGCUUGUCCCUGUGCUCCCACGGUUCCCAGGG | 0.618 |
| GCCUUCCACACUAGAUGGUCCAAUCCUACUGGAUGGUCGGUUGCUGCUCACAUCUGCCUGCAAGUCUUUCCAGUACUCCUGGGAUAUCCUGUAAUAGACUCGGGUCCUGU | 0.2 |
| UGUGGACUUGGCUGUCUUGUGAUGUAUUUUUUUCAUAUGUAUCCUGUGCCAUACUAUUGUUAAAAUGAACUGUUGCUAUUGUGAGAUGGAUUUCCUUUCGAAUGGCACUA | 0.796 |
| UUUAAAGAAGAGAAAAACACCUUGAGCCUUAAAACGGUGCUGCUGGGAAACAUUUGCACUCUUUUAGUGCAUUUCCUCCUGCCUUUGCUUGUUCACUGCAGUCUUAAGAA | 0.708 |
| GCUCAGCAAGCCUUCUAAAAAGACUUCCCUUUUCUUGGGGUAUGGCUGUCUCAGCACAAUACUCGACAUAACUGCAGAGCUGAUGUGGCUCAGGCACCCUGGUUUUAAUC | 0.436 |

Further values, each from its own experiment
| Molecule | target | assay | system | setting | scale | quantity | result |
| --- | --- | --- | --- | --- | --- | --- | --- |
| PhoQ, residues 284 288 289 292 302 303 GLASVI | PhoP, residues 12 14 15 18 19 AQCLL (Escherichia coli, UniProt P23836) | Sort-seq, measured: YFP reporter | E. coli | PhoQ-PhoP variant library, added: 10 µM Mg2+ | baseline: high Mg2+ state, higher = stronger signaling | fold induction | 15.5 |

A few entries again (series 2):
| Sequence | E-score |
| --- | --- |
| CTTCCGAC | -0.0973 |
| CGGGATTC | -0.205 |
| GTACTGAC | -0.0709 |
| AAGTCTGA | -0.00451 |
